Experimental data collected from several papers.
Protocols differ between the studies behind these lines. Several values in a cell are separate wells, animals, samples, runs or records. ± gives the spread as reported.
Cell line: A549

SMILES	test	setting	IC50
CCCc1cc2cc(-n3nc(CO)c4c3CC(C)(C)CC4=O)cc(N3CCC(O)CC3)c2c(=O)[nH]1	cell growth or viability, MTS	–	> 50 µM
CCCCCC(=O)[O][Pt]([Cl])([Cl])[O]C(=O)CCCCC.N.N	cell growth or viability, MTT	–	~0.02 µM and 0.02 µM
CCOC(=O)/C=C1\S/C(=N\N=C\c2cccc3cc4ccccc4nc23)N(c2cccc(OC)c2)C1=O	cell growth or viability, MTT	48 h	> 50 µM
O=c1c2ccccc2[se]n1CCCCCCn1[se]c2ccccc2c1=O	cell growth or viability	5 days	1.39 µM
CC(C)[C@@H]1NC(=O)[C@@H](CCCNC(=N)N)NC(=O)[C@H]([C@@H](C)O)NC(=O)[C@@H](CCCN)NC(=O)[C@H](Cc2ccc(F)c(F)c2)NC(=O)[C@@H](Cc2ccccc2)NC1=O	cell growth or viability, ATP luminescence	–	> 100 µM
COc1c(C)c(OCc2ccccc2)c(C)c(OCc2ccccc2)c1C(=O)/C=C/c1ccccc1	cell growth or viability, SRB	72 h	> 50 µM
COc1cccc(N2C(=O)CS/C2=N\N=C\c2cccc3cc4ccccc4nc23)c1	cell growth or viability, MTT	48 h	40.8 µM
CC(=O)NCCOCCOCCNC(=O)c1cc(C(=O)N2CCNCCNCCNCC2)c(O)c(C(=O)N2CCNCCNCCNCC2)c1	cell growth or viability, MTT	24 h	> 1000 µM
CCCC[N+]1=c2cc3c4cc2[O][Mn-2]1(=[C]=O)(=[C]=O)(=[C]=O)[n+]1ccc(cc1)C(=O)Nc1ccccc1NC(=O)c1cc[n+](cc1)[Mn-2](=[C]=O)(=[C]=O)(=[C]=O)([O]3)[N+]=4CCCC	cell growth, MTT	48 h, LED light photolysis 1 h	2.34 ± 0.1 µM
CO[C@@H](C[C@H]1C(C)=CC[C@@H]2[C@]3(C)C[C@H](O[C@@H]4O[C@@H](C)[C@H](OC(=O)c5cccc(O)c5)[C@@H](O[C@@H]5O[C@H](CO)[C@@H](O)[C@H](O)[C@H]5NC(C)=O)[C@H]4O)[C@@H](O)C(C)(C)[C@H]3CC[C@]21C)[C@H](N)C(=O)O	cell growth or viability, CCK-8	72 h	7.32 µM
O=C(NCc1cc(F)cc(F)c1)[C@@]1(O)CCN(c2ccc3[nH]ccc3c2)C1=O	cell growth or viability	–	0.3 µM
C=CCOCO[C@H](C(=O)NC[C@@H]1C[C@@H](OC)C(C)(C)[C@@H](C[C@@H](COC)OC)O1)[C@@]1(OC)CC(=C)[C@@H](C)[C@@H](C)O1	cell viability, sulforhodamine B	72 h, 37 °C, together with: 100 µM H2O2	1.48 ± 0.39 µM
CCCc1cc2cc(-n3nc(CC)c4c3CC(C)(C)CC4=O)cc(N3CCC(O)CC3)c2c(=O)[nH]1	cell growth or viability, MTS	–	4.41 µM
CCOc1cncc(-c2ccc(NC(=O)C3(c4ccnc(NS(=O)(=O)C5CC5)n4)CCOCC3)nc2)n1	cell growth or viability, ATP luminescence	72 h	3.27 µM
COc1cc(C2=CCCc3c2ccc(OC)c3OCc2ncc([N+](=O)[O-])n2C)cc(OC)c1OC	cell growth, SRB	4 h exposure then 120 h oxic, oxic exposure then drug removal	73.4 ± 21.3 µM
CCCc1cc2cc(-n3nc(C4CCC4)c4c3CC(C)(C)CC4=O)cc(N3CCC(O)CC3)c2c(=O)[nH]1	cell growth or viability, MTS	–	6.78 µM
CC(C)CN1C(=O)CS/C1=N\N=C\c1cccc2cc3ccccc3nc12	cell growth or viability, MTT	48 h	> 50 µM

SMILES	test	setting	IC50
CCCC[N+]1=c2cc3c4cc2[O][Mn-2]1(=[C]=O)(=[C]=O)(=[C]=O)[n+]1ccc(cc1)C(=O)Oc1ccccc1OC(=O)c1cc[n+](cc1)[Mn-2](=[C]=O)(=[C]=O)(=[C]=O)([O]3)[N+]=4CCCC	cell growth, MTT	48 h, LED light photolysis 1 h	5.55 ± 0.4 µM
CCCc1cc2cc(-n3nc(C)c4c3CC(C)(C)C(C)C4=O)cc(N3CCC(O)CC3)c2c(=O)[nH]1 (racemic)	cell growth or viability, MTS	–	14 µM
O=C1CS/C(=N\N=C\c2cccc3cc4ccccc4nc23)N1c1ccc([N+](=O)[O-])cc1	cell growth or viability, MTT	48 h	> 50 µM
CCCCCC(=O)Oc1c(C)c(OC)c2c(c1C)OC(=O)[C@@H](CCCC)[C@]2(O)/C=C/c1ccccc1 (relative stereo)	cell growth or viability, SRB	72 h	> 50 µM
COc1ccccc1/C=C1\C(=O)N(C)c2ccc(Nc3nc(C)nc4ccccc34)cc21	cell growth or viability, MTT	–	2.72 µM
CN(C)c1ccc(-c2oc3cc4ccccc4cc3c(=O)c2O)cc1	cytotoxicity	24 h, together with: visible light	2 ± 1 µM
O=C1C(Cl)=C(Cl)C(=O)c2c1cccc2[N+](=O)[O-]	cell growth or viability, MTT	–	122 µM
O=Cc1ccc2c(c1C#Cc1ccc(O)cc1)C(c1ccc(O)cc1)(c1ccc(O)cc1)c1cc(O)ccc1-2	cell growth or viability, MTT	48 h	> 50 µM
COC(=O)[C@@H](NC(=O)[C@@H](NC(=O)[C@@H](NC(=O)OC(C)(C)C)C(C)C)C(C)C)C(C)C	cell growth or viability, SRB	–	1.8 µM and 1.13 µM and 0.79 µM
Cc1ccc(C(C)C)cc1.Cc1ccc(C(C)C)cc1.Cc1ccc(C(C)C)cc1.Cc1ccc(C(C)C)cc1.O=S(=O)(O)C(F)(F)F.O=S(=O)(O)C(F)(F)F.O=S(=O)(O)C(F)(F)F.O=S(=O)(O)C(F)(F)F.c1ccc2c3c4ccccc4c(c2c1)-c1cn(nn1)-c1cc[n+](cc1)[Ru-]1[O]C2=[O+][Ru-]([O]C2=[O+]1)[n+]1ccc(cc1)-n1cc(nn1)-c1c2ccccc2c(c2ccccc12)-c1cn(nn1)-c1cc[n+](cc1)[Ru-]1[O]C2=[O+][Ru-]([O]C2=[O+]1)[n+]1ccc(cc1)-n1cc-3nn1	cell growth or viability, MTT	24 h	> 20 µM
Cc1nc(Nc2ccc3c(c2)/C(=C/c2cn(C)c4ccccc24)C(=O)N3C)c2ccccc2n1	cell growth or viability, MTT	–	8.29 µM
Cc1ccc2c(c1C#Cc1ccc(O)cc1)C(c1ccc(O)cc1)(c1ccc(O)cc1)c1cc(O)ccc1-2	cell growth or viability, MTT	48 h	13.1 µM
CC(CCC(=O)[O][Pt]([NH2])([NH2])([OH])([Cl])[Cl])C1CCC2C3CCC4CC(O)CCC4(C)C3CCC12C (stereo not shown)	cell growth or viability, MTT	–	9.4 µM
Cn1ncc(-c2ccc3c(=O)[nH]nc(CN)c3c2)c1-c1c(F)c(Cl)cc(OC2CC2)c1C#N	cell viability, inhibitor, CellTiter-Glo	120 h, baseline-subtracted	0.03 µM
Cc1nc(Nc2ccc3c(c2)/C(=C/c2ccccc2Cl)C(=O)N3C)c2ccccc2n1	cell growth or viability, MTT	–	3.1 µM
NC(=O)c1ccc(-c2ccccc2Cl)c2c3c([nH]c12)CCC(N)C3 (stereo not shown)	cell growth or viability	–	0.0268 µM
CCCCCCCCCC(=O)Oc1c(C)c(OC)c2c(/C=C/c3ccccc3)c(CCCCCCCC)c(=O)oc2c1C	cell growth or viability, SRB	72 h	> 50 µM

Repeated from above:
SMILES	test	setting	IC50
CC(C)[C@@H]1NC(=O)[C@@H](CCCNC(=N)N)NC(=O)[C@H]([C@@H](C)O)NC(=O)[C@@H](CCCN)NC(=O)[C@H](Cc2ccc(F)c(F)c2)NC(=O)[C@@H](Cc2ccccc2)NC1=O	cell growth or viability, ATP luminescence	–	> 100 µM
COc1c(C)c(OCc2ccccc2)c(C)c(OCc2ccccc2)c1C(=O)/C=C/c1ccccc1	cell growth or viability, SRB	72 h	> 50 µM
COc1cccc(N2C(=O)CS/C2=N\N=C\c2cccc3cc4ccccc4nc23)c1	cell growth or viability, MTT	48 h	40.8 µM
CC(=O)NCCOCCOCCNC(=O)c1cc(C(=O)N2CCNCCNCCNCC2)c(O)c(C(=O)N2CCNCCNCCNCC2)c1	cell growth or viability, MTT	24 h	> 1000 µM
